Measurements collected from several papers.
Every numbered part comes from another study and shows a few of its results, in no order. Changes are numbered by the printed parent chain.

Study 1
Target: CCND3, cyclin fold, Cln2 fusion (human)
Method: yeast growth competition, sequencing
Medium: yeast
Setting: weak parent motif
Relative to: not given
Direction: higher = stronger binding
Starting sequence: SLBP docking peptide (human); ARYKRKLLINDFG
Change	normalised enrichment score
ARYKRKLLIIDFG [N10I]	0.147
ARMKRKLLINDFG [Y3M]	0.235
AHYKRKLLINDFG [R2H]	0.126
ARYKRWLLINDFG [K6W]	0.21
ARYKRKLLINDDG [F12D]	0.18
ARYKRKLLINDQG [F12Q]	0.0648
ARYKRKLTINDFG [L8T]	0.112
ARYKRKLLANDFG [I9A]	0.143
ARYKRKLLINDFM [G13M]	0.229
ARYKRMLLINDFG [K6M]	0.129
ARYYRKLLINDFG [K4Y]	0.126
MRYKRKLLINDFG [A1M]	0.18
ARYKRKLLINNFG [D11N]	0.0613
ARYKRKLLINLFG [D11L]	0.104
ARYKRKDLINDFG [L7D]	0.129
ARYKEKLLINDFG [R5E]	0.137
NRYKRKLLINDFG [A1N]	0.219
ARYRRKLLINDFG [K4R]	0.0973

Study 2
Target: Histone acetyltransferase KAT6A, both winged helices, GST fusion (KAT6A, Homo sapiens, UniProt Q92794, residues 1-181)
Method: protein binding microarray
Molecule type: double-stranded DNA, one strand shown
Medium: in vitro
Tested at: not given
Setting: 8-mer, flanks averaged, mean of 2 arrays, mostly near background
Relative to: not given
Direction: higher = stronger binding
Target sequence (chain): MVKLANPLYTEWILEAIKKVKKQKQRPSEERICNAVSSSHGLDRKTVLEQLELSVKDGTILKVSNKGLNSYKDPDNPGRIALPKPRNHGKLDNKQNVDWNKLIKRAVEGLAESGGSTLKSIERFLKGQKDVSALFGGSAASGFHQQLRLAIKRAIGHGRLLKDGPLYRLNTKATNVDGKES
Oligonucleotide	E-score
AGATTTAT	-0.00289
CCACCGCA	0.0669
ACGGCACG	0.284
AGGTTTGA	-0.164
AAGATCCT	-0.0933
CATCCTAC	-0.124
ACGTCCTA	-0.0479
GTTCACCA	0.126
CTTCACAC	-0.102
CCCTGAGC	-0.0356
ACGCAATG	0.0432
GCAACGGC	0.271
TATGCGGA	0.178

Study 3
Target: Sal-like protein 4, full length isoform A (SALL4, Homo sapiens, UniProt Q9UJQ4, residues 1-1053)
Chain of UniProt Q9UJQ4 (whole entry, looked up): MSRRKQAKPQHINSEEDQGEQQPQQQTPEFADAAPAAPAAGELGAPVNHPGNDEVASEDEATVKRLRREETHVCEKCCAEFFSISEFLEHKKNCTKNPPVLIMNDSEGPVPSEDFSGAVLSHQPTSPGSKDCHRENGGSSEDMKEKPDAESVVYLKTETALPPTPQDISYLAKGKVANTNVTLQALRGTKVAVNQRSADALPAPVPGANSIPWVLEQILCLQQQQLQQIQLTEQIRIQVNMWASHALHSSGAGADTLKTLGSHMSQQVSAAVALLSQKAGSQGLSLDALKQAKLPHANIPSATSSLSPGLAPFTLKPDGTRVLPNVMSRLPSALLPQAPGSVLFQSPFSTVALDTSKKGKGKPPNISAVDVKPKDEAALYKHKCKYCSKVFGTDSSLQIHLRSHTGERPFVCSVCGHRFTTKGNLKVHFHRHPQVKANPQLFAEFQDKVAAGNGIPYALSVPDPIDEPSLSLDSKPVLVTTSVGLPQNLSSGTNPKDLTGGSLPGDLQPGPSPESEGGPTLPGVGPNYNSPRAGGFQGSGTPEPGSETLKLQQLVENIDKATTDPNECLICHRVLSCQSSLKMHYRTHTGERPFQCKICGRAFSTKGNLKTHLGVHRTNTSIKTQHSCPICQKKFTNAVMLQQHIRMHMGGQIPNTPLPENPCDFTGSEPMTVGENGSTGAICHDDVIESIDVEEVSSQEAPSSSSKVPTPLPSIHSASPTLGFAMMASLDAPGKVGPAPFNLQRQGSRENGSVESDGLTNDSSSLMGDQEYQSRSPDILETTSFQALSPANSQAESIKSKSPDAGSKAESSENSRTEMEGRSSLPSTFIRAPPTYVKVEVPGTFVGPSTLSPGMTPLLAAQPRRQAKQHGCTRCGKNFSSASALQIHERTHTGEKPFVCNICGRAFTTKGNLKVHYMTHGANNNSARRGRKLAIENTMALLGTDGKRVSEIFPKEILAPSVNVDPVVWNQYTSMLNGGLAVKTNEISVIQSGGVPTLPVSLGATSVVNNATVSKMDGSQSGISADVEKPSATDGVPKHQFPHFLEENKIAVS
Method: universal PBM
Molecule type: double-stranded DNA, one strand shown
Medium: in vitro
Tested at: 600 nM
Setting: 8-mer, flanks averaged, mean of replicates
Direction: higher = stronger binding
Oligonucleotide	E-score
CATGATCG	0.127
GACTTGCC	-0.312
AAAGTTAA	0.227
GTGAACCA	0.0427
ACATACTA	0.0536
AAATAACA	0.348
CCGCAGAA	-0.0834
GTTCCTCA	-0.0481
CCAAAGAA	0.122
CAATTTCA	0.214
AAGCGTGA	-0.0719
AACTCAGT	0.0187
TATTCAAA	0.327

Other studies, line by line
Molecule	target	test	system	setting	scale	endpoint	result
PhoQ, residues 284 288 289 292 302 303 GLASVI	PhoP, residues 12 14 15 18 19 SFCSL (Escherichia coli, UniProt P23836)	Sort-seq, measured: YFP reporter	E. coli	PhoQ-PhoP variant library, added: 10 µM Mg2+	relative to: high Mg2+ state, higher = stronger signaling	fold induction	6.28

A few entries again (study 3):
Oligonucleotide	E-score
GACTTGCC	-0.312
CATGATCG	0.127
CCGCAGAA	-0.0834
AACTCAGT	0.0187
GTGAACCA	0.0427
